Published values pooled from the literature.
Each numbered part is a random draw from the data of one study; scales do not carry over between parts.

Sample 1
Target: Phosphate system positive regulatory protein PHO4, full length, GST-tagged (PHO4, Saccharomyces cerevisiae, UniProt P07270, residues 1-312)
Technique: competition protein-binding microarray
Molecule type: double-stranded DNA, one strand shown
Medium: in vitro
Tested at: 2 µM
Notes: whole 60-bp probe, lowest competitor level
Together with: Cbf1 competitor, 0.05 µM
Direction: higher = stronger binding
All sequences stand within: … GTCTTGATTCGCTTGACGCTGCTG
Target sequence (chain): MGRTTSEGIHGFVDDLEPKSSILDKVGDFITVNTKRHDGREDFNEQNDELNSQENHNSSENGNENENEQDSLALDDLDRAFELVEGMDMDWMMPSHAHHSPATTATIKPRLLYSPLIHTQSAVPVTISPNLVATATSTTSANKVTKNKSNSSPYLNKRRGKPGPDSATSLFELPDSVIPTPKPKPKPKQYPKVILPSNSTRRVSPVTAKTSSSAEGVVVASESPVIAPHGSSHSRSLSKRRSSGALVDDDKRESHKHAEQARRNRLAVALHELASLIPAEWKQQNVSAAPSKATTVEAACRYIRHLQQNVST
Sequence	fluorescence intensity [a.u.]
CATACCCAACCTTGTCACATAACTTAAGATATTTGT	4140
CTCCAGAAATCGGGCCACATGACAAAGCCCGTAGAC	7850
AAAGCGGTAATTTGGTGCGTGGGTGCAGATATCTAT	9340
AAATTACTAAGTTTTCACGTGTAATACCCCGTATGA	12200
CCAGTTTTGGACTGTCACACTGCTCCCATTGCTTGT	4080

Sample 2
Target: RNA binding protein fox-1 homolog 2, RRM domain, GST-SBP tag (RBFOX2, Homo sapiens, UniProt O43251-10, residues 100-194)
Technique: RNA Bind-n-Seq
Molecule type: RNA
Medium: in vitro
Tested at: 365 nM
Notes: natural RNA segment, single round, ends assumed
Reference: no-protein control
Direction: higher = stronger binding
All sequences stand within: GGGAGUUCUACAGUCCGACGAUC … UGGAAUUCUCGGGUGCCAA
Residues (chain): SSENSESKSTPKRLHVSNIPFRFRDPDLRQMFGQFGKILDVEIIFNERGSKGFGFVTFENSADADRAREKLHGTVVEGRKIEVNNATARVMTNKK
Sequence	RBNS enrichment (R)
AGUGCCUAGAACUCCCGUGGUGGUCCUGAGCAGAGAGGAGGAUGUCCUCCUGCCUGCCUGAAGGUCUCCCAUGAAAACACUGCUGAACUGUGUUGACACUCAUGACCCUU	0.259
UCUCUAACACCAGCACACUUCUUACGAGAUGUACUCAACCUGGCCUACUGGCCAGGUCACCAAGCAGUGGCCUUUAUCUGACAUGCUCACUUUAUUAUCCAUGUUUUAAA	0.479
UCAAUGACAUCUCUCAGAGCAUUUUUGUUUUCUCCUCUGAAGGUCCAUCCAGUUGCAUUGGGAAGGGUUGAGGGGCCUGAUUCUGGGGCUGGCUAAUGCCAGCUCUCGGG	0.711
AUCUCUCCUGAGCAGAUUGCCUGAUGGGAUUGACAAGGAGGCUCAUUGGGUUGUGGUUUGAACAUCGAGGGUGUGAAGAAAAUGAAGCAGUGGCUAAAGAAAUCUUCUCC	1.43
GCCAUUGCGGAGCUGCCCUCUUGAGUCUUUCUGUCCAUCCCAUUCUAUUCUGUACUGUGACUUUAGUUCAGGAAGUUUUGUUUUGUGUUUUAAAUAAAAGGAAAGAGCAA	0.3

Sample 3
Target: Histone acetyltransferase KAT6A, winged helix 2, GST fusion (KAT6A, Homo sapiens, UniProt Q92794, residues 85-181)
Technique: protein binding microarray
Molecule type: double-stranded DNA, one strand shown
Medium: in vitro
Tested at: not given
Notes: 8-mer, flanks averaged, mean of 2 arrays, mostly near background
Reference: not given
Direction: higher = stronger binding
Residues (chain): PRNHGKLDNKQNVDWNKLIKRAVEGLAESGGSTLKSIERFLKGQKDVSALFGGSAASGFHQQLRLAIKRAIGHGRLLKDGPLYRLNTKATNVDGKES
Sequence	E-score
AATTGAGG	-0.00877
AGCGCAGA	0.0992
AACCACAC	0.0253
CGTCGGGA	0.103
TGCGGACA	0.0844
GGTAAGAA	-0.0298

Other studies, line by line
Substance	target	assay	test system	conditions	how to read	endpoint	value
PhoQ, residues 284 288 289 292 302 303 AGGCYF	PhoP, residues 12 14 15 18 19 LYFRQ (Escherichia coli, UniProt P23836)	Sort-seq, measured: YFP reporter	E. coli	PhoQ-PhoP variant library, together with: 10 µM Mg2+	reference: high Mg2+ state, higher = stronger signaling	fold induction	17.3

Repeated from above (sample 1):
Sequence	fluorescence intensity [a.u.]
CATACCCAACCTTGTCACATAACTTAAGATATTTGT	4140
AAAGCGGTAATTTGGTGCGTGGGTGCAGATATCTAT	9340
